Measured values collected from several papers.
Every numbered part comes from another study and shows a few of its results, in no order.

Set 1 — method: protein-binding microarray; molecule type: double-stranded DNA, one strand shown; medium: in vitro; tested at: 0.8 µM; setting: whole 60-bp probe, no competitor; direction: higher = stronger binding
Target: Centromere-binding protein 1, full length, N-terminal tag (CBF1, Saccharomyces cerevisiae, UniProt P17106, residues 1-351)
Chain of UniProt P17106 (whole entry, looked up): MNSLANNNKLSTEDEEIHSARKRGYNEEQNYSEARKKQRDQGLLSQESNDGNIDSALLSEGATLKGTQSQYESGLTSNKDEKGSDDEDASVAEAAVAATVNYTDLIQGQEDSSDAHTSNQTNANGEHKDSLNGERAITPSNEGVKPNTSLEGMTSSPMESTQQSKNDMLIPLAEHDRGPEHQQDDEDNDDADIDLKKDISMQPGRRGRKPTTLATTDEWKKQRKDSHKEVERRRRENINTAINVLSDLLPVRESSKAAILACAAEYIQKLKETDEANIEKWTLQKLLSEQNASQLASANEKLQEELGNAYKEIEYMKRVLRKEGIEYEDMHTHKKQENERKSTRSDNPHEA
Strand	fluorescence intensity [a.u.]
GAACTGGGGAAGGTGCACGCCCTTTTCACAAGATAGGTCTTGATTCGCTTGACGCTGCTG	569
GAAGCTTTACTGAACATCAGCACCTTGAATTTCTAGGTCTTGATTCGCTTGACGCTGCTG	522
CTAGCGCGGTTCGATCACGGATATACTTTCAACTTCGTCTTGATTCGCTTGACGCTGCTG	543
CTAAAAAGGTGCACACGCGTGGCTTTTTCTTGATTCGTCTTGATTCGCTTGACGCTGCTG	617
GAATTGTTAGGTAGTCATGTGATTTTTTGTCACTAGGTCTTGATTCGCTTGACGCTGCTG	6580
CTATTTTAAGAGCATGATGTTGTATATAAATATTTCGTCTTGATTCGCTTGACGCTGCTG	618
CTATTTTTTCTGTCAGGTGCGGCCCATCATCGATTCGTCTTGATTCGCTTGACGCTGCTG	1640
CCTAACTACTATACACTGATGACATAGCTTCGTACAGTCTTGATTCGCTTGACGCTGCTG	547
CTAATCAGAACAGAGCACGGGAATAGTGATCTCTTCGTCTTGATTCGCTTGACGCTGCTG	615
GAAGGTAGCCCGCGAAACGTGCGGGCCTGATGTTAGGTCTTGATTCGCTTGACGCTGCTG	525
GAAAGACATGTGCGTCACGAAAAAAGAAATCAATAGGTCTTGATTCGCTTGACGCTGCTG	772
GAACTTCAAAAAACCCATGTGAGACTGAAACATTAGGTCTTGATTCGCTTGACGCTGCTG	654
GAATATGTTTATTTGCACGTCACGTTTGTGTTATAGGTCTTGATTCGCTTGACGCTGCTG	2650
CTACAGCGCATACGACGGTCACCTAGGATGGAGTTCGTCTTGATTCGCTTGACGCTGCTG	528
GAACACCAATGCAGTCACATGTTTATGAGAACATAGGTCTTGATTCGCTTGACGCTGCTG	3100
CTATAATGACATTGTCATGATCACTGACTCAAATTCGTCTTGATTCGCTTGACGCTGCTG	594
CTATTGCATCCCCCAGACACCACCTCTTTTGTTTTCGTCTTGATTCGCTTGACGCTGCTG	521
TGTACGAAGCTATAACACGTATGTATAGTAGTTAGGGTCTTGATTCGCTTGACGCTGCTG	498
CTATGATGCATTTTGCACGAGATAATCGCTCTTTTCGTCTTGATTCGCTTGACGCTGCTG	661
GAAATCGATTTTTGTCACCTGCAAACTCTTCTTTAGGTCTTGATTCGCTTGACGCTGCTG	864
GAACTTTTTATTCGTGATGTTGAGTAAGGTACATAGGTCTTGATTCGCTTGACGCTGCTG	595
CTAATATGTATTAATGGTGGTGCCTGTCAGGGCTTCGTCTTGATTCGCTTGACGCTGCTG	529
GAACACAGCCCACCTCACCCCACAGGAAAACAGTAGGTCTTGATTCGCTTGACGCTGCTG	532
GAAGACAAGCAACCACACCACATGAGCTCACAATAGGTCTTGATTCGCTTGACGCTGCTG	604
CTAAAAAAAAAAAAGCACGTGCTCAAAAATGTTTTCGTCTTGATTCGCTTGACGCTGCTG	19600

Set 2 — method: RNA Bind-n-Seq; molecule type: RNA; medium: in vitro; tested at: 365 nM; baseline: no-protein control; direction: higher = stronger binding
Target: RNA binding protein fox-1 homolog 2, RRM domain, GST-SBP tag (RBFOX2, Homo sapiens, UniProt O43251-10, residues 100-194)
Setting: natural RNA segment, single round, ends assumed
Target sequence (chain): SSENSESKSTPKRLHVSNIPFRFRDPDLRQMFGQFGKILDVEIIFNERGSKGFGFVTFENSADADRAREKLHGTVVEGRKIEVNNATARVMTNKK
Strand	RBNS enrichment (R)
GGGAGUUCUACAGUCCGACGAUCGCAGGAACCGGACGGAAGAAUCCUCUCCAGGAGACUGGGCUUUAGUUAGUGGCUUGAUUCCCCGGCUUGCUCAAGGGAACUCAGAAAAUCAUCGUCCUUGUACUGCGCUUUGGAAUUCUCGGGUGCCAA	2.02
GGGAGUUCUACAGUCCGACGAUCUAUGAGCCUGGUUUGUGCAAAAUUAAAUCAGAGGCUUCUACAACAUGGUUUAUUUAUGUUGUAGCAAAGUUGGCUCUACAUAAACAUUGUUCUUAUUUUAAAAUUAACACUGGAAUUCUCGGGUGCCAA	0.47
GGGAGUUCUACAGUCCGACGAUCUUAGGGUUGUUCCUGUUCUUUUAGGUUGGGCGGUGGGUCUGUGUCCUGGUGUUGAGUUUCUGCAAAUUUCUGGGGGUGAUUUCUGUGACUCUGGGCCCACAGCGGGGAGGUGGAAUUCUCGGGUGCCAA	0.587
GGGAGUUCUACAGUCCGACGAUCCUUCCUCAUGCUCAUCUUCAUGACCUACAAUGGGUACCUAUGCAUUGCAGUAGCAGCAGGGGCUGGGACGGGAUACUUUCUCUUCAGCUGGAAGAAGGCAGUGGUGGUGGUGGAAUUCUCGGGUGCCAA	0.393
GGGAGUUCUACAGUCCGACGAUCCCAGUCAGAAAAGCAAACUAACAGAAACAUGAAUUAGAAUUUCAAGCUCAUCUGAGUUUGACCAACAUGUUAGGCACUUACAAGAGCUGAAAUUUUUUUUUUAAUCACAGUGGAAUUCUCGGGUGCCAA	0.427
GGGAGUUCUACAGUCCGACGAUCGGGAUUCAGUGUUGACUGUUCCCUGGUGUCCCCGCUGUCCUGUGUCGUCUGGUAUAGAAAGCGCAUGUUUCUGUAUCGGUGUCUGAUGAUAAGUUUCCUUGGAGUUUUAUUGGAAUUCUCGGGUGCCAA	31.9
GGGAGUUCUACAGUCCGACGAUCUCAAAUCCGAAGUGCUCGAGUGCUUAGAAACCCCCUCUGGUGCUUGGUUGAACAAGGGAAUCACAAGAAAACGAAAAUGCAAAAACUGAACUUCGGGGGUCGUUCUGUGCUGGAAUUCUCGGGUGCCAA	0.893
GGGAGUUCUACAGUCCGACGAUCUCCUUUUCCACCCUUCUCCCCAGUGCCUUCCUCGUCCUGGUGGAGCUGAGGCCUACUCCUCCCCAGUCCAACACUGCCAAAAAUCUGUGUAUGUGCCAGGGGUCGGGGGUUGGAAUUCUCGGGUGCCAA	0.264
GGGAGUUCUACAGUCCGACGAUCAAUCUGAGACUUGUAGAGAUGAUUUAAUGAGAAGCACAAUUUUUAUUGUGACCAGUCACGUUCUAUCACCAGGCACUGUCUUGUCUUUGCCCUUGCCUUUUCUGUAACUCUGGAAUUCUCGGGUGCCAA	0.259

Set 3 — method: protein binding microarray; molecule type: double-stranded DNA, one strand shown; medium: in vitro; tested at: not given; baseline: not given; direction: higher = stronger binding
Target: Histone acetyltransferase KAT6A, winged helix 2, GST fusion (KAT6A, Homo sapiens, UniProt Q92794, residues 85-181)
Setting: 8-mer, flanks averaged, mean of 2 arrays, mostly near background
Residues (chain): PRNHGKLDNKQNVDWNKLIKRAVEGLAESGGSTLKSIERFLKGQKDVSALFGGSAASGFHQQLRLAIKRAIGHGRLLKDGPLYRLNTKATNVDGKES
Strand	E-score
CGCCAGCA	0.0984
AGGATCGG	-0.104
AATACCGA	-0.0529
GACTGACA	-0.0788
AAAGAGTC	-0.157
GTGAATTA	0.114
ATATCAGG	-0.0764
GGGAACCC	0.212
AAGAACCC	-0.0487
AATCAGGT	0.0644
ACCCAGCC	0.0508
CTTCACTC	-0.0268
AGCGCACC	0.039
ATCTGCCG	0.134
ACCATAGC	-0.133
CGTGCGAG	0.177
CCCACATA	-0.122
GACAACAA	0.0267
GCTCGACC	0.05
AGCTCGCA	-0.0411
ACACGGAG	0.128
AGAGTAAT	0.0697
AACTATAT	-0.125
ATGTCCGA	-0.1

Set 4 — method: RNA Bind-n-Seq; molecule type: RNA; medium: in vitro; tested at: 200 nM; setting: whole 134-nt RNA, ends assumed; added: 150 mM LiCl; baseline: input library; direction: higher = stronger binding; each molecule: 7-deaza-guanosine replaces G
Target: Fragile X messenger ribonucleoprotein 1, C-terminal low-complexity region (Fmr1, Mus musculus, UniProt P35922)
Strand	log2 enrichment
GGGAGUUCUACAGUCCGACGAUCUUUACCCCUCACUGGAGUCAGAUGAAGACAACCCCAUCUUUAAGUCCCGGUCGAAGAAAAGGAAAGGCUCAGACGACGCUCCCUACAGCCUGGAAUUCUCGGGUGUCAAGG	-0.89
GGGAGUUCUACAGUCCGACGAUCCCUCAAGUCCUGUGCUACACAUCGUAUGUACCGAAUCGGGCGGGCGGGCGGGAAAGUAUUAUGUUACGCCGUUCGGAUCUGCACUUCCAGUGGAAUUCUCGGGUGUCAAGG	-0.147
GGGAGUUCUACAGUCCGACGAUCAAGUCCUGUGCUACACAUCGUAUGUACCGAAUCGGGAAAAAAAGGGUUUGGGUGGGAAAGUAUUAUGUUACGCCGUUCGGAUCUGCACUUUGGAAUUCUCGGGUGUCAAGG	-1.87
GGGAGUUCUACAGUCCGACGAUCGUCCUGUGCUACACAUCGUAUGUACCGAAUCAAAUUUUUUUAAAUUUAAAUUUUUAAAAAAGUAUUAUGUUACGCCGUUCGGAUCUGCACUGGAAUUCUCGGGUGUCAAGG	-3.11
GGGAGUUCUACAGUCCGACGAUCGUCCUGUGCUACACAUCGUAUGUACCGAAUCGGGUUUUUGGGAAAGGGUUUUUUUGGGAAAGUAUUAUGUUACGCCGUUCGGAUCUGCACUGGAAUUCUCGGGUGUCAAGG	-1.64
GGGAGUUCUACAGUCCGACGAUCUAACUUUAGAGGAGGAUCUGAUGGAUAUGGCAGUGGACGUGGAUUUGGGGAUGGCUAUAAUGGGUAUGGAGGAGGACCUGGAGUUGGCAAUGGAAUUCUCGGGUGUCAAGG	0.657
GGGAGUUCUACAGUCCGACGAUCUAACUUUAGAGGAGGAUCUGAUGGUUAUGGCAGUGGACGUGGAUUUGGGGAUGGCUAUAAUGGGUAUGGAGGAGGACCUGGAGGUGGCAAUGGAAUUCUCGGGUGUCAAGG	0.255
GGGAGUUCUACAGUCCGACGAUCUGGGAGGUGGAUUUUGUUUAUUUUUUGAGCUCAUUUCCAGGGGUGGGAAUUUUUUUUUAAUAUGUGUCAUGAAUAAAGUUGUUUUUGAAAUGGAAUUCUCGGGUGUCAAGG	0.499
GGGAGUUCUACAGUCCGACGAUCUAACUUUAGAGGAGGAUCUGAUGGAUAUGGCAGUGGACGUGGAUUUGGGGAUGCCUAUAAUGGGUAUGGAGGAGGACCUGGAGGUGGCAAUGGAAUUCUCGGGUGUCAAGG	-0.815
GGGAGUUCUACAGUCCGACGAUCCAAGUCCUGUGCUACACAUCGUAUGUACCGAAUCGGUUUGGGGUUUGGGGUUUGGAAAGUAUUAUGUUACGCCGUUCGGAUCUGCACUUCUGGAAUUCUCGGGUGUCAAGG	-2.09
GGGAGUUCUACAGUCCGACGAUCUCCUGUGCUACACAUCGUAUGUACCGAAUCGGGGCCCCCCGGGCCCCCCGGCCCCCCGGGAAAGUAUUAUGUUACGCCGUUCGGAUCUGCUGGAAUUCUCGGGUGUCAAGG	-0.344
